Results gathered from unrelated publications.
Protocols differ between the studies behind these lines.
ABCG2: Broad substrate specificity ATP-binding cassette transporter ABCG2 (ABCG2, Homo sapiens, UniProt Q9UNQ0)
UniProt Q9UNQ0, sequence (whole entry, looked up): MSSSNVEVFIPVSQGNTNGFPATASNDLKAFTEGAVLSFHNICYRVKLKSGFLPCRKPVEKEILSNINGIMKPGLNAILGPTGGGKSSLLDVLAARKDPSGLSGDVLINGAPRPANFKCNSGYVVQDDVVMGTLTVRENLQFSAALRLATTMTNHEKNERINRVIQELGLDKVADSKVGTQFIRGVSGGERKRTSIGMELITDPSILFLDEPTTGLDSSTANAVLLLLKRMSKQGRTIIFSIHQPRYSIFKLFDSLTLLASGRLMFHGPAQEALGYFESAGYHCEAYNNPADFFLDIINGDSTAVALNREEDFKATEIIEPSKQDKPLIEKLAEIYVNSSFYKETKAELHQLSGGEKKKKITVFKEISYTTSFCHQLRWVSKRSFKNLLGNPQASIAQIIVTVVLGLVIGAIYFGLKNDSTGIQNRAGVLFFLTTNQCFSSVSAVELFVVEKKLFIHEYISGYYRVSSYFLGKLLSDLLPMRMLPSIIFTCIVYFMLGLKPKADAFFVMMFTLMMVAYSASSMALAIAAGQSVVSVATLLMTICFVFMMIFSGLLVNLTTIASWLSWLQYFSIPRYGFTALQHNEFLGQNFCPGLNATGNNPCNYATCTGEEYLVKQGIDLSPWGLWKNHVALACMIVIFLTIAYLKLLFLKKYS
SLCO1B3: Solute carrier organic anion transporter family member 1B3 (SLCO1B3, Homo sapiens, UniProt Q9NPD5)
UniProt Q9NPD5, sequence (whole entry, looked up): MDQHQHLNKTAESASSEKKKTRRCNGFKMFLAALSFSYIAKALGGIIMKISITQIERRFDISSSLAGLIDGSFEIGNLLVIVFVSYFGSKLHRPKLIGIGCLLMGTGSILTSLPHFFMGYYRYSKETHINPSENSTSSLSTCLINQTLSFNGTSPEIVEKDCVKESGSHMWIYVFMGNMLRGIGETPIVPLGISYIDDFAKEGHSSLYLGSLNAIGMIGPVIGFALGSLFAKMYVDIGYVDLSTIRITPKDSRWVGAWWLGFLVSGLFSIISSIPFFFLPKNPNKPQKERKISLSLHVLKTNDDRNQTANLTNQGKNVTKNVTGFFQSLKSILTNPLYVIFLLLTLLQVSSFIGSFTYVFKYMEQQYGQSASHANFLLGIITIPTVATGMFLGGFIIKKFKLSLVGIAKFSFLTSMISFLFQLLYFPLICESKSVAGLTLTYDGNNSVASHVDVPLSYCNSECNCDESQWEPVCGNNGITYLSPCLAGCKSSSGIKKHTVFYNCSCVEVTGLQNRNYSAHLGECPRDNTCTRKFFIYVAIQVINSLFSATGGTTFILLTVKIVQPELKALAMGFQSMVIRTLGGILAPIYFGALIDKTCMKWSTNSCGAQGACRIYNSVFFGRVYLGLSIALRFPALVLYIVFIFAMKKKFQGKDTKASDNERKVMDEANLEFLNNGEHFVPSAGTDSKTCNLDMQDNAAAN
Tumor necrosis factor receptor superfamily member 9/Nectin-4: Tumor necrosis factor receptor superfamily member 9/Nectin-4 (Homo sapiens, UniProt Q07011+Q96NY8)
UniProt Q96NY8, sequence (whole entry, looked up): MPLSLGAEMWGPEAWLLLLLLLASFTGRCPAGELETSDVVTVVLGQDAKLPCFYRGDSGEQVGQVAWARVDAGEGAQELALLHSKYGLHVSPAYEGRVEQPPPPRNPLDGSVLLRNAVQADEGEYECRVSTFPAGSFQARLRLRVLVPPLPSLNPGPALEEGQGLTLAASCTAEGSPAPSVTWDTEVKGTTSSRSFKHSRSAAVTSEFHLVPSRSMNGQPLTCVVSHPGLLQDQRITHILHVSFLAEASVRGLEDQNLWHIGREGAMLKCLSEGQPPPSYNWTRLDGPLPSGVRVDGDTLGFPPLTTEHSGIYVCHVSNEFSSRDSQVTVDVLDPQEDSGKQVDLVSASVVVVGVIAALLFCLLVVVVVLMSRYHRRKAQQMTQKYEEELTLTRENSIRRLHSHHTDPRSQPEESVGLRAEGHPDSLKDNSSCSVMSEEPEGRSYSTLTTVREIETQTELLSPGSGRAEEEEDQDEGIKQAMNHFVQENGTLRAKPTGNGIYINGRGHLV
UniProt Q07011, sequence (whole entry, looked up): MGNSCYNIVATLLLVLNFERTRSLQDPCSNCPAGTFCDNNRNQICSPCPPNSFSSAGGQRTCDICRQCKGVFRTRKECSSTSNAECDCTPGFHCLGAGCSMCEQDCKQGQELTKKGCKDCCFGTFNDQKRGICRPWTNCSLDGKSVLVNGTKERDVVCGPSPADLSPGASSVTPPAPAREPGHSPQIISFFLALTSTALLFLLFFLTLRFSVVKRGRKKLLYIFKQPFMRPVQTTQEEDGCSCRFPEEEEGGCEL
UniProt Q05421, sequence (whole entry, looked up): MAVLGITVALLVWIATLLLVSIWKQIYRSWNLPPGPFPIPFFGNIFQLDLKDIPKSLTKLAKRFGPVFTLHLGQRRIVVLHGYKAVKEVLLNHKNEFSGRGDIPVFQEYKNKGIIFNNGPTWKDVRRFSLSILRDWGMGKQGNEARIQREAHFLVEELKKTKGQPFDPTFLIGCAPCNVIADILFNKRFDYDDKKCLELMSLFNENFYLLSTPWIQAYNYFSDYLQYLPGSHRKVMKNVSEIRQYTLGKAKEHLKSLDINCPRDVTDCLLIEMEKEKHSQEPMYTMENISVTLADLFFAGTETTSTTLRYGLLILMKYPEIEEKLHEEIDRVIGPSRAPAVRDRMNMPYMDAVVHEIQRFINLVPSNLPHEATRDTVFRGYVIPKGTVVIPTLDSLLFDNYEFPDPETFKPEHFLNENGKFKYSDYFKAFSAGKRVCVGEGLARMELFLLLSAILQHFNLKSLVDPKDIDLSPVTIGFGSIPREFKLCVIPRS
UniProt P78536, sequence (whole entry, looked up): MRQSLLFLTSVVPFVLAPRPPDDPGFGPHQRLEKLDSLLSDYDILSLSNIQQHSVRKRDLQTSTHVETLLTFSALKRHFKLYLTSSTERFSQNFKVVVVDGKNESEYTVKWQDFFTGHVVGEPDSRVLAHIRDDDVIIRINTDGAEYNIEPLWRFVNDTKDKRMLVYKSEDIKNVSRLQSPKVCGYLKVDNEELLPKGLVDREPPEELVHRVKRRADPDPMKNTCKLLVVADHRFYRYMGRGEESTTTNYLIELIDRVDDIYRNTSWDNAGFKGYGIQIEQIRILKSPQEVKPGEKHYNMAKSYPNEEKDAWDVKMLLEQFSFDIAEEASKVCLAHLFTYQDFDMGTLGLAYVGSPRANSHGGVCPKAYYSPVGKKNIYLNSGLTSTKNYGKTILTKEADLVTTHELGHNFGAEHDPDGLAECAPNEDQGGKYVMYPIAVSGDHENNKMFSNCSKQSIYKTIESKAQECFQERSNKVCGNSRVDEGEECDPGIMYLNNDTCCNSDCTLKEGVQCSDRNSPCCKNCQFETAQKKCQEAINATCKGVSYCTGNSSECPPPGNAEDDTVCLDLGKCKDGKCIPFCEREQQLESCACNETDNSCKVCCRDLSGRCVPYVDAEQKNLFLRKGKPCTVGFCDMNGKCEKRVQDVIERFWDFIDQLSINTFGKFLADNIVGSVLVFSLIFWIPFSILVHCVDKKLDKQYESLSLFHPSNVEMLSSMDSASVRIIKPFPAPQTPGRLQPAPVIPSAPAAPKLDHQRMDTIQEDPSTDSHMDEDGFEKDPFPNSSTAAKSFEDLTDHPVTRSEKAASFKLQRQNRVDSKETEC
UniProt P05804, sequence (whole entry, looked up): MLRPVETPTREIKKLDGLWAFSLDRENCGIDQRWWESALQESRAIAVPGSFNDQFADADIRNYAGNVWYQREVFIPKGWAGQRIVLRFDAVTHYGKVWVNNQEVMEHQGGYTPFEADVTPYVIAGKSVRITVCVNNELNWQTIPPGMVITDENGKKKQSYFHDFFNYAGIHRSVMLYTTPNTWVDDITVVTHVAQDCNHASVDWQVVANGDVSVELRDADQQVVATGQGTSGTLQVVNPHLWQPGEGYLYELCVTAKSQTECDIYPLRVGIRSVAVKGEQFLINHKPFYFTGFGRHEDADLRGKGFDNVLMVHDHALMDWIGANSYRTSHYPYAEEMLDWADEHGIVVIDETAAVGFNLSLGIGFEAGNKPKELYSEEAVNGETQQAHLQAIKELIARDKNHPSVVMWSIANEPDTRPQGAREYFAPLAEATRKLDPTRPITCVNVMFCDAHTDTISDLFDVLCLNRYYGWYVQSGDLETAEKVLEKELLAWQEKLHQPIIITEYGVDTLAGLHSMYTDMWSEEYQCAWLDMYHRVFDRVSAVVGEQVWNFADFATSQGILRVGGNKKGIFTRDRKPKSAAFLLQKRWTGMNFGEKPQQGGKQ
UniProt Q9NX63, sequence (whole entry, looked up): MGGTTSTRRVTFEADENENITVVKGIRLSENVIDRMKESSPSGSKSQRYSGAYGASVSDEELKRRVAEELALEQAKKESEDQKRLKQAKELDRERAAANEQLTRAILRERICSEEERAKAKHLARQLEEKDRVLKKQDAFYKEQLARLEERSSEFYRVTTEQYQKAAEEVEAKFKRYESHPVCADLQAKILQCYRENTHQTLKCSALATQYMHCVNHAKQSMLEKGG

For CO[C@H]1C[C@@H]2CC[C@@H](C)[C@@](O)(O2)C(=O)C(=O)N2CCCC[C@H]2C(=O)O[C@H]([C@H](C)C[C@@H]2CC[C@@H](OC(=O)NCCOCCOCCOCCOCCOCCOCCOCCOCCC(=O)N3CCc4cc(Cn5nc(-c6ccc7oc(N)nc7c6)c6c(N)ncnc65)ccc4C3)[C@H](OC)C2)C[C@@H](O)[C@H](C)/C=C(\C)[C@@H](O)[C@@H](OC)C(=O)[C@H](C)C[C@H](C)/C=C/C=C/C=C/1C, “incidence of Diarrhea TEAE” read 28.1% (patients with advanced solid tumours; intravenous, dose not given, any grade).
Under “aglycone concentration increase”, COC(=O)c1cc(O)c(O)c(O)c1 is recorded as at least 1.25 fold (Beta-glucuronidase (uidA, Escherichia coli, UniProt P05804); concentration not given, 6 h, pH 7.4, glucuronide hydrolysis; reference: untreated control).
COc1cc2c(Oc3ccc4[nH]c(C)cc4c3F)ccnc2cc1OCC1(N)CC1 — result for “grade 3 Triglyceride elevation”: 0% (paediatric recurrent refractory sarcoma; 8 mg).
Under “log2 fold change”, CC[C@H](C)[C@@H]1NC(=O)[C@@H]2CCCN2C(=O)[C@H](CC(C)C)NC(=O)[C@H](CC(C)C)NC(=O)CNC(=O)[C@@H](NC(=O)[C@@H](NC(=O)[C@H](CC(=O)O)NC(=O)CNC(=O)[C@@H](NC(=O)[C@H](C)NC(=O)CNC(=O)[C@H](CCCCN)NC(=O)[C@H](CC(C)C)NC(=O)[C@H](CC(C)C)NC(=O)[C@H](CCCCN)NC(=O)CNC(=O)[C@@H](NC(=O)[C@@H](N)CC(C)C)C(C)C)C(C)C)C(C)C)CSSC[C@@H](C(=O)O)NC1=O is recorded as -3.23 (RNA-seq, refers to: Slfn2 mRNA; mouse traumatic brain injury, frontal cortex and hippocampus; dose not given; reference: TBI plus compound vs TBI).
CN1CC[C@@H](c2c(O)cc(O)c3c(=O)cc(-c4ccc(C(F)(F)F)cc4Cl)oc23)[C@@H]1CO — result for “patients with adverse event”: 33.3% (refers to: Constipation; B-cell malignancies; oral, 150 mg, intermittent dosing).
For CC1(C)C(C=C(Cl)Cl)C1C(=O)OCc1cccc(Oc2ccccc2)c1 (stereo not drawn), “BCRP ATPase activity” read “inhibited” (ABCG2; inhibition, inhibitor; 0.03 to 100 µM, added: sulfasalazine 10 µM).
COc1cc(Nc2ncc(F)c(Nc3ccc4c(n3)NC(=O)C(C)(C)O4)n2)cc(OC)c1OC has an IC50 of over 10 µM (ADAM17 (Homo sapiens, UniProt P78536); inhibitor).
For COc1cc2nc(N3CCN(C(=O)c4ccco4)CC3)nc(N)c2cc1OC, the inhibition was 82.8% (SLCO1B3; transport, inhibitor; transiently transfected cells; 100 µM, 10 (unit not given), added: CCK-8).
CCCC[C@@H]1NC(=O)[C@H](Cc2ccc(O)cc2)NC(=O)[C@@H]2CCCN2C(=O)[C@H](CC(=O)O)NC(=O)[C@H](C)NC(=O)[C@H](Cc2ccccc2)NC(=O)[C@@H]2CSCCC(=O)N3CN(CN(C3)C(=O)CCSC[C@@H](C(=O)N[C@@H](C)C(N)=O)NC1=O)C(=O)CCSC[C@H](NC(C)=O)C(=O)N[C@@H](CC(C)(C)C)C(=O)N1CCC[C@H]1C(=O)N[C@@H](CCC(=O)O)C(=O)N[C@H](CCCCNC(=O)CCc1cn(CCOCCOCCOCCOCCOCCC(=O)NCCCC[C@H]3NC(=O)[C@H](Cc4cccc5ccccc45)NC(=O)[C@@H]4CCCN4C(=O)CCSCCC(=O)N4CN5CN(C4)C(=O)CCSC[C@H](NC3=O)C(=O)N[C@@H](CCSC)C(=O)N[C@@H](CCCCNC(=N)N)C(=O)N[C@@H](CC(=O)O)C(=O)N[C@@H](Cc3c[nH]c4ccccc34)C(=O)N[C@@H](CO)C(=O)N[C@@H]([C@@H](C)O)C(=O)N3CCC[C@H]3C(=O)N3C[C@H](O)C[C@H]3C(=O)N[C@@H](Cc3c[nH]c4ccccc34)C(=O)N[C@H](C(N)=O)CSCCC5=O)nn1)C(=O)N1CCC[C@H]1C(=O)N[C@@H](Cc1ccc(O)cc1)C(=O)N2 has an Emax of 43 fold (Tumor necrosis factor receptor superfamily member 9/Nectin-4; reporter gene, agonist, luciferase reporter; CD137 Jurkat reporter with HT-1376; 6 h, geometric mean; reference: wells without compound).
The inhibition of CN(C)C(=O)COC(=O)Cc1ccc(OC(=O)c2ccc(NC(=N)N)cc2)cc1 is reported as 29.6% (ABCG2; transport, inhibitor; 100 µM, 5 (unit not given), pH 7, added: CCK-8).
With CC[C@H](C)[C@H](NC(=O)[C@H](Cc1ccccc1)NC(=O)[C@H](CCC(=O)O)NC(=O)[C@H](CCCNC(=N)N)NC(=O)[C@H](C)NC(=O)[C@H](C)NC(=O)[C@H](CCC(N)=O)NC(=O)[C@H](CCC(=O)O)NC(=O)[C@H](CCC(=O)O)NC(=O)[C@H](CC(C)C)NC(=O)[C@H](Cc1ccc(O)cc1)NC(=O)[C@H](CO)NC(=O)[C@H](CO)NC(=O)[C@@H](NC(=O)[C@H](CC(=O)O)NC(=O)[C@H](CO)NC(=O)[C@@H](NC(=O)[C@H](Cc1ccccc1)NC(=O)[C@@H](NC(=O)CNC(=O)[C@H](CCC(=O)O)NC(=O)[C@H](C)NC(=O)CCc1c[nH]cn1)[C@@H](C)O)[C@@H](C)O)C(C)C)C(=O)N[C@@H](C)C(=O)N[C@@H](Cc1c[nH]c2ccccc12)C(=O)N[C@@H](CC(C)C)C(=O)N[C@H](C(=O)N[C@@H](CCCNC(=N)N)C(=O)NCC(=O)N[C@@H](CCCNC(=N)N)C(=O)N[C@@H](CCCCNC(=O)COCCOCCNC(=O)COCCOCCNC(=O)CC[C@H](NC(=O)CCCCCCCCCCCCCCCCC(=O)O)C(=O)O)C(=O)NCC(=O)NCC(=O)N[C@@H](CO)C(=O)N[C@@H](CCCCNc1c(NCCCCCN(O)C(=O)CCC(=O)NCCCCCN(O)C(=O)CCC(=O)NCCCCCN(O)C(C)=O)c(=O)c1=O)C(=O)O)C(C)C [zirconium-89 labelled] the tissue uptake was 0.16 %ID/g (rat, pancreas; sc, 3 nmol/kg, 24 h, ex vivo).
For CC1(C)[C@H](C=C(Cl)Cl)[C@H]1C(=O)OCc1cccc(Oc2ccccc2)c1, “enzyme contribution to CLint” read 0.04% (human CYP2C8; IVIVE from expressed enzymes; human, liver, in vivo scaled; 0.1 µM, age-specific).
With CN(C(=O)n1cnc(-c2ccc[n+]([O-])c2)c1)C1CCCCC1 the inhibition was -6% (CYP2C19 (Homo sapiens, UniProt P33261); enzyme activity, inhibitor; 10 µM, added: 3-cyano-7-ethoxycoumarin substrate).
For C[C@H]1CN(c2n[nH]c3nc(N[C@H]4CC[C@H](NS(=O)(=O)CCC(F)(F)F)CC4)ncc23)CCO1, the remaining binding was 1.02 (MICOS complex subunit MIC19 (Homo sapiens, UniProt Q9NX63); Kinobeads competition, refers to: CHCHD3; 0.16 µM, unit not given; reference: vehicle).
For CC1(C)C(C=C(Cl)Cl)C1C(=O)OC(C#N)c1ccc(F)c(Oc2ccccc2)c1 (stereo not drawn), the enzyme contribution was 0.32% (CES2 human cytosolic; 0.1 µM, age 6 months).
With CCCC[C@@H]1NC(=O)[C@H](Cc2ccc(O)cc2)NC(=O)[C@H](C)N(C)C(=O)[C@H](CC(=O)O)NC(=O)[C@H](C)NC(=O)[C@H](Cc2ccccc2)NC(=O)[C@@H]2CSCCC(=O)N3CN(CN(C3)C(=O)CCSC[C@H](NC(C)=O)C(=O)N[C@@H](CC(C)(C)C)C(=O)N3CCC[C@H]3C(=O)N[C@@H](CCC(=O)O)C(=O)N[C@H](CCCCNC(=O)CCc3cn(CCOCCOCCOCCOCCOCCC(=O)N[C@H]4CSCCC(=O)N5CN6CN(C5)C(=O)CCSC[C@H](NC(=O)[C@@H](CC(=O)O)NC(=O)[C@H](Cc5cccc7ccccc57)NC(=O)[C@@H]5CCCN5C4=O)C(=O)N[C@@H](CCSC)C(=O)N[C@@H](CCCCNC(=N)N)C(=O)N[C@@H](CC(=O)O)C(=O)N[C@@H](Cc4c[nH]c5ccccc45)C(=O)N[C@@H](CO)C(=O)N[C@@H]([C@@H](C)O)C(=O)N4CCC[C@H]4C(=O)N4C[C@H](O)C[C@H]4C(=O)N[C@@H](Cc4c[nH]c5ccccc45)C(=O)N[C@H](C(N)=O)CSCCC6=O)nn3)C(=O)N3CCC[C@H]3C(=O)N[C@@H](Cc3ccc(O)cc3)C(=O)N2)C(=O)CCSC[C@@H](C(N)=O)NC1=O the Emax was 31 fold (Tumor necrosis factor receptor superfamily member 9/Nectin-4; reporter gene, agonist, luciferase reporter; CD137 Jurkat reporter with HT-1376; 6 h, geometric mean; reference: wells without compound).
COc1ccc2cc1Oc1ccc(cc1)C[C@H]1c3cc(c(OC)cc3CCN1C)Oc1c(OC)c(OC)cc3c1[C@H](C2)N(C)CC3 has an inhibition of 41.9% (SLCO1B3; transport, inhibitor; 10 µM, added: EG).
C=CC1CO1 (stereo not drawn) gave an IC50 of 54 µM (Cytochrome P450 2E1 (Cyp2e1, Mus musculus, UniProt Q05421); 4-nitrophenol hydroxylation, inhibitor; B6C3F1 mouse, liver microsomes; added: 4-nitrophenol 50 µM).
With CCOC(=O)C1=C[C@@H](OC(CC)CC)[C@H](NC(C)=O)[C@@H](N)C1 the inhibition was 69.2% (SLCO1B3; transport, inhibitor; transiently transfected cells; 100 µM, 10 (unit not given), added: CCK-8).
With CCCC[C@@H]1NC(=O)[C@H](Cc2ccc(O)cc2)NC(=O)[C@@H]2CCCN2C(=O)[C@H](CC(N)=O)NC(=O)[C@H](C)NC(=O)[C@H](Cc2ccccc2)NC(=O)[C@@H]2CSCCC(=O)N3CN(CN(C3)C(=O)CCSC[C@H](NC(C)=O)C(=O)N[C@@H](CC(C)(C)C)C(=O)N3CCC[C@H]3C(=O)N[C@@H](CCC(=O)O)C(=O)N[C@H](CCCCNC(=O)CCc3cn(CCOCCOCCOCCOCCOCCC(=O)N[C@H]4CSCCC(=O)N5CN6CN(C5)C(=O)CCSC[C@H](NC(=O)[C@@H](CC(=O)O)NC(=O)[C@H](Cc5cccc7ccccc57)NC(=O)[C@@H]5CCCN5C4=O)C(=O)N[C@@H](CCSC)C(=O)N[C@@H](CCCCNC(=N)N)C(=O)N[C@@H](CC(=O)O)C(=O)N[C@@H](Cc4c[nH]c5ccccc45)C(=O)N[C@@H](CO)C(=O)N[C@@H]([C@@H](C)O)C(=O)N4CCC[C@H]4C(=O)N4C[C@H](O)C[C@H]4C(=O)N[C@@H](Cc4c[nH]c5ccccc45)C(=O)N[C@H](C(N)=O)CSCCC6=O)nn3)C(=O)N3CCC[C@H]3C(=O)N[C@@H](Cc3ccc(O)cc3)C(=O)N2)C(=O)CCSC[C@@H](C(N)=O)NC1=O the Emax was 5 fold (Tumor necrosis factor receptor superfamily member 9/Nectin-4; reporter gene, agonist, luciferase reporter; CD137 Jurkat reporter with HT-1376; 6 h, geometric mean; reference: wells without compound).
O=C(O)C(F)(F)C(F)(F)C(F)(F)C(F)(F)C(F)(F)C(F)(F)C(F)(F)F: “linear uptake duration” 1 min (SLCO1B3; substrate; CHO stably expressing; 10 µM).
